Experimental data of several laboratories.
Every numbered part comes from another study and shows a few of its results, in no order.

Block 1
Target: Interferon regulatory factor 3, full length, phosphomimetic (IRF3, Homo sapiens, UniProt Q14653, residues 1-427, S386D/S396D/S398D/S402D/T404D/S405D)
Method: protein-binding microarray
Form: double-stranded DNA, one strand shown
Medium: in vitro
Concentration: 2540 nM top
Notes: 60-bp whole probe
Together with: salmon DNA 0.4 mg/ml
Reference: random background probes
Direction: higher = stronger binding
All sequences stand within: GCCTAGCAC … GTCTTGATTCGCTTGACGCTGCTG
Target sequence (chain): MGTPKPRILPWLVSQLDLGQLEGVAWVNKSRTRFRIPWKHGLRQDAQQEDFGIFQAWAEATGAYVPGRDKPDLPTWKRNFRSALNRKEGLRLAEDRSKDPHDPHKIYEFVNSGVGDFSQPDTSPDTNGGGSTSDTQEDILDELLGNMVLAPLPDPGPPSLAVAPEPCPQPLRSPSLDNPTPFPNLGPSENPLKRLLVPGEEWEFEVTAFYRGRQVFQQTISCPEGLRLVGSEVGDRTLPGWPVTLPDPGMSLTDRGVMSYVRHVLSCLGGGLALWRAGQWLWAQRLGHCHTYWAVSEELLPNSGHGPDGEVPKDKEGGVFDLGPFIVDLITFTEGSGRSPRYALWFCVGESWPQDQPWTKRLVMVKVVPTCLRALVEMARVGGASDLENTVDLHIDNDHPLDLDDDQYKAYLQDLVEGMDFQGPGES
| Strand | fitted relative affinity [z-score] |
| --- | --- |
| TTAGATTTCAGACGGGATTAGTGCTAG | -0.059 |
| TTAGATTTCAGAATCGATTAGTGCTAG | 2.42 |
| CCAACTCGCCTTTTTTGTTGGTGCTAG | 2.83 |
| GACGGTATCAACTTTCGGGACGTGCTA | 1.38 |
| TCAGTTACCCCTCATCAAACTGTGCTA | 1.44 |
| TTTGGTTTCTGGTTTATTGAGTGCTAG | 3.01 |
| GACGATTTCGGGACTGGTGACGTGCTA | 1.64 |
| TTAGGTATCCTCATCCTTTAGTGCTAG | 1.83 |
| GGTCTTCTGGGCTGTTTGGTTGTGCTA | -0.264 |
| GATGATCTCAGTCTCGAGACGTGCTAG | 0.27 |
| TATTGTCTCCCCCATCTTGTTGTGCTA | 0.714 |
| GACGGTCTTCTTTTCCTGACGTGCTAG | 1.43 |
| TGGTAATTCTTTGCTCATTTTGTGCTA | 0.0459 |
| GAAGAACTGGGGTTTCGAGACGTGCTA | 0.0531 |
| TTAGGCTTCCTACTGCTTTAGTGCTAG | -0.458 |
| CTCCCTCAGGGTTTCAGATGGTGCTAG | 0.215 |
| AACGGTTTCGGGACTGGGGACGTGCTA | 4.49 |
| GACGATATCCGGACTGGAGACGTGCTA | 0.809 |
| TTAAGACTGCTACTGCTTTAGTGCTAG | -0.751 |

Block 2
Target: RNA binding protein fox-1 homolog 2, RRM domain, GST-SBP tag (RBFOX2, Homo sapiens, UniProt O43251-10, residues 100-194)
Method: RNA Bind-n-Seq
Form: RNA
Medium: in vitro
Concentration: 365 nM
Notes: natural RNA segment, single round, ends assumed
Reference: no-protein control
Direction: higher = stronger binding
All sequences stand within: GGGAGUUCUACAGUCCGACGAUC … UGGAAUUCUCGGGUGCCAA
Construct (chain): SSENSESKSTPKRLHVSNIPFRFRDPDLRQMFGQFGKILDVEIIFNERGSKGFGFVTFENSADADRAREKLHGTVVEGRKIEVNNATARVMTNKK
| Strand | RBNS enrichment (R) |
| --- | --- |
| UUAGUUAUGAAAUGUUCUUAAUAUGACGUGUUCAAUAACUUCACAUAAACUUCCUGUUCUCCAAAACCUCAAAGAGAUAGAGUUAAUGAGUUGUUGUUUUUUUUUAAAUG | 0.352 |
| ACAUGGUAUUGUAUAUCAGUGGAGAAAUGUAUUAUUUCCAUGAUCAAAUGUAGUCUCUGUUAAGGUCAAGUUUUCUUUUAUAAGCCUUUAAUUCAUCCUCAGUGACUCUG | 0.563 |
| AAUUUUCAGUAGAAUAGUUGAAUGUGUUAAGAUAGGAUUUUAUGUUAGAGAUACCAGAAUGCUGGUAUUCUACUACUUGUGCAAUAUAUAUGUUUUAAAAAACAAAUUUG | 0.515 |
| UUGACCAGAUGUUCCAAAAUAUCUGCAUCCACCUGGAGAUGCAGCUAAGUGGGUCCUUAUGUACACACCACGUUCACACACACACAGAGGGACCACGUGUGCACGCAUGA | 2.23 |
| AAUUUCUAGCUGUCCUUGCAGAAUUAUAGUGAAUACCAAAAUGGGGUUUUGCCCCAGGAGGCUCCUACCAGUUUCUGCUUUCCAGUUGCAGAGUUUGGGGGGUUAUUCAU | 0.321 |
| UGUUAAUAUAAAGUGUUGUUUUAGCAUGUGGCCAGAUGAUGCUCUGUCAUCUUUAGAAAGUGAGAUAACCAAGGAAAUAAUUGAAGGAGUAUAGGGAGAUGGAUUAAGUU | 11.8 |
| UUAUUCCUAUUAUUGUUAUGAACCUUCUUAUUUUACAUUUGAGGGAUAAAGGCAAAUGAUUUGUGAGUCUUCUAGUUACUGGACCGAGUUUUCUGCUGGAUCUGGUGGGA | 0.563 |
| CACACCACAGAAAAGCACAACCCUCUGGGGAGGAGACCAUCCCUCAAGGCCGGGGGUCGUGGCUUUGGCCUCUGACUUCUAAGCCAAGAUGCCCUGUAAACACUCUCUCA | 0.258 |

Block 3
Organism: Saccharomyces cerevisiae
Observed: mating pheromone growth arrest
Method: pooled competitive growth deep sequencing
Form: peptide
Strain: no Cln2 overexpression
Notes: peptide tiling library
Direction: direction not given
| Sequence | enrichment score |
| --- | --- |
| RKLHFEDEVT | 0.261 |
| LRRQLSFSED | 0.263 |
| KVKRRLDLDIDGLQKE | 0.293 |
| LRRKLFLDGNGSIS | -0.418 |

Block 4
Target: Sal-like protein 4, full length isoform B (SALL4, Homo sapiens, UniProt Q9UJQ4-2, residues 1-616)
Method: universal PBM
Form: double-stranded DNA, one strand shown
Medium: in vitro
Concentration: not given
Notes: 8-mer, flanks averaged, mean of replicates
Direction: higher = stronger binding
| Strand | E-score |
| --- | --- |
| AGGGTATA | 0.274 |
| CGCGGAGA | -0.172 |
| GGTGTACA | 0.129 |
| AGGCTCGG | -0.228 |
| AGACGATA | 0.218 |
| AACTTAGA | 0.0727 |
| CCTATTCC | -0.0113 |
| AGTAGTCC | 0.00388 |
| CCTGAACC | -0.0637 |
| CTTCTCAC | -0.0697 |
| GCGCATCA | 0.0191 |
| AATTGTGC | 0.165 |
| CAAGTTTC | 0.125 |
| CTCAAGGC | -0.198 |
| CGTATGAG | 0.0485 |
| AGAATGTC | 0.0729 |
| ATAAAAAG | 0.307 |
| ACAATGGC | -0.0861 |
| CCCGCCCG | -0.306 |
| GTTATTGA | 0.339 |
| GGTGGGGA | -0.138 |
| GAATCTCC | -0.119 |
| CCTGAGCC | -0.304 |
| CGGAAGCA | -0.0942 |
| CCACAAGA | -0.0572 |
